Results pooled from the literature.
A part holds a random share of what one study measured.
Sequence of UniProt P36894 (whole entry, looked up): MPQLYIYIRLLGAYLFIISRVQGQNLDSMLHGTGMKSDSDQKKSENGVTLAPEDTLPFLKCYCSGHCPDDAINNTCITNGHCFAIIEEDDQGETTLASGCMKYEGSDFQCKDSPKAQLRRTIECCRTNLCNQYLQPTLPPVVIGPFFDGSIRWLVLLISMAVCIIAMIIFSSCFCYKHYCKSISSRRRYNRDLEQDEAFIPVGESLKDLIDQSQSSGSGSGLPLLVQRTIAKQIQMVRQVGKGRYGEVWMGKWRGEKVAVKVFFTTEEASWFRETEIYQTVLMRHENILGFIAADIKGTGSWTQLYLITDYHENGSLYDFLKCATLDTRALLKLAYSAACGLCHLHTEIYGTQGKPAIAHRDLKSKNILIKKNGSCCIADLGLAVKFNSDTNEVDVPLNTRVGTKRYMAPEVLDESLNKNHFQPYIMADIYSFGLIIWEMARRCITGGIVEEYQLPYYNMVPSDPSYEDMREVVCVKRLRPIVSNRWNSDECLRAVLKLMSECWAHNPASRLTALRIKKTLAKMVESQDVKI
Sequence of UniProt O15146 (whole entry, looked up): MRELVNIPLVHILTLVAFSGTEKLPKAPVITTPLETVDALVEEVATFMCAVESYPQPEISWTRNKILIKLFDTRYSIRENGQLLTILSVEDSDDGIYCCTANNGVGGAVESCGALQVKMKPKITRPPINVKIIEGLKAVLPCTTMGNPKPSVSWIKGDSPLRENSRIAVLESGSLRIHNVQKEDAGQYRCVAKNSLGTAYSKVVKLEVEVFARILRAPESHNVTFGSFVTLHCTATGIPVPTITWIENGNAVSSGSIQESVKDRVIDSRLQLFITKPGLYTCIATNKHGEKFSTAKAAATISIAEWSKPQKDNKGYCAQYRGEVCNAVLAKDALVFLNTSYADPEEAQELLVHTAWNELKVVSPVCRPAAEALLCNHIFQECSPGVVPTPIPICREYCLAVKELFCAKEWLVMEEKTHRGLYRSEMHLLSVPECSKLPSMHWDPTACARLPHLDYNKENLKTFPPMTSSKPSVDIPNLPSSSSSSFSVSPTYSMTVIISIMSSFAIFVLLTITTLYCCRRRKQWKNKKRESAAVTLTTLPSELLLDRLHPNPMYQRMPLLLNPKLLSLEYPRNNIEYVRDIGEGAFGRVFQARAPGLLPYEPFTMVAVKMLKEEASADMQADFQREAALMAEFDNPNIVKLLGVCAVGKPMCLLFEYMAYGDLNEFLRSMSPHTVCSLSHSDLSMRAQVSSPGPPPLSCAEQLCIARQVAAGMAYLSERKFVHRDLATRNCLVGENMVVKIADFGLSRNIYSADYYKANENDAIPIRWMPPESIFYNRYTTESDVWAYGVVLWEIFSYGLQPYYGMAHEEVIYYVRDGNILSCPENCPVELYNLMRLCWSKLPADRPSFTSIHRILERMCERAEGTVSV
Sequence of UniProt Q99759 (whole entry, looked up): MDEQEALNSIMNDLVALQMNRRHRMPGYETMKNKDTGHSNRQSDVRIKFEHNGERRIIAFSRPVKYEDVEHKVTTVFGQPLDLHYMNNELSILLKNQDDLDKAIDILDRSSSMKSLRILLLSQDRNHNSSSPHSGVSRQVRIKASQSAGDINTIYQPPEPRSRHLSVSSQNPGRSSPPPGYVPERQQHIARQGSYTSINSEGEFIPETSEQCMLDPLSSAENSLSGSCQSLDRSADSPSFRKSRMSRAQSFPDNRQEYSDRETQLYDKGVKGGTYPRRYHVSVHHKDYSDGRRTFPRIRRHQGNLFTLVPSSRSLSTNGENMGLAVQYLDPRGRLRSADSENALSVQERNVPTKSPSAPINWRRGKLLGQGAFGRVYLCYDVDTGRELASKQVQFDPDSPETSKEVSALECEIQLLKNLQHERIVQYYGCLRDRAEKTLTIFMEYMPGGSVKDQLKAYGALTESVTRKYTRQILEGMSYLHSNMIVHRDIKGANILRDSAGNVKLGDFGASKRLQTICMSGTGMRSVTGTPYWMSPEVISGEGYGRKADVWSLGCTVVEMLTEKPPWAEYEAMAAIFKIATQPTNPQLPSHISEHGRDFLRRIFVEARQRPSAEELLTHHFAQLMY
Sequence of UniProt Q96Q40 (whole entry, looked up): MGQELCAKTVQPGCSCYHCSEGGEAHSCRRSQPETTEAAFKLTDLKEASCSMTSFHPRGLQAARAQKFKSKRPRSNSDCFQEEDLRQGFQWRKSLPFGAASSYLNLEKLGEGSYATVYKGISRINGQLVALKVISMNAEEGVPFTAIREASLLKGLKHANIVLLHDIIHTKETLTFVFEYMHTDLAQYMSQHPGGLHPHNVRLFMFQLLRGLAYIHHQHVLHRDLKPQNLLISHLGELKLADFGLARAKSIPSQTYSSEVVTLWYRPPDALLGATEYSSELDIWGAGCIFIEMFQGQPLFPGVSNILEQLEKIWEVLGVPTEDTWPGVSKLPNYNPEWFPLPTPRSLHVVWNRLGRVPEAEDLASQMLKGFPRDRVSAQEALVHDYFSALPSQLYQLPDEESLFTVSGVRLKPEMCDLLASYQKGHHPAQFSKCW
Sequence of UniProt Q9Y616 (whole entry, looked up): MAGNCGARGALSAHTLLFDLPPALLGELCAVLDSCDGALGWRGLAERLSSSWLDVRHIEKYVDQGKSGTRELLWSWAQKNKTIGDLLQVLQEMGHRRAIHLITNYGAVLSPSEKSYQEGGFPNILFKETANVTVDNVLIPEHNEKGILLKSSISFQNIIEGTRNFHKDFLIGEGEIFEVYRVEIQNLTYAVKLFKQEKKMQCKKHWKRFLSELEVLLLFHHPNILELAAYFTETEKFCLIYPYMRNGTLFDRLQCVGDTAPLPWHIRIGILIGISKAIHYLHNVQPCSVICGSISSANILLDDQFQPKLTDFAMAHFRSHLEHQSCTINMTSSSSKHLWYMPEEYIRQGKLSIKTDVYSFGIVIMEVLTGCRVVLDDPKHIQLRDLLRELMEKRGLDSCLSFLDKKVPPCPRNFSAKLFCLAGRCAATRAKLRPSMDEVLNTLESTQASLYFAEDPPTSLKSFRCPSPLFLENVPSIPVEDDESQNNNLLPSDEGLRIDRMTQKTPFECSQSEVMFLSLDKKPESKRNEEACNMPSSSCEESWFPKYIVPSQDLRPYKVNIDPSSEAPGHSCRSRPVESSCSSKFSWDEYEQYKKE
Sequence of UniProt P36896 (whole entry, looked up): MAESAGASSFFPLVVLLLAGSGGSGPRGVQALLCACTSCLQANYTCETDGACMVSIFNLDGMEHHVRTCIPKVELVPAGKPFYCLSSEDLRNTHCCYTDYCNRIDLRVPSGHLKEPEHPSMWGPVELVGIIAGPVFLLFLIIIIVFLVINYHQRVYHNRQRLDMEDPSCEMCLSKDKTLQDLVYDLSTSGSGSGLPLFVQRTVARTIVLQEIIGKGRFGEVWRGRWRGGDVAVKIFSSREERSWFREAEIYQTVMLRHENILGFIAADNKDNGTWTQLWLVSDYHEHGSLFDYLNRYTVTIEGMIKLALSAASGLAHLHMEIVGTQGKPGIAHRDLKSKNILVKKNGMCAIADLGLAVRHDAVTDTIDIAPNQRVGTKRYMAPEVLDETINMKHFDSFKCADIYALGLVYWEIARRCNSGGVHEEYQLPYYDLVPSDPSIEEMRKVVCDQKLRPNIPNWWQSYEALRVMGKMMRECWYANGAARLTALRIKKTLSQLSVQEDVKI
Sequence of UniProt Q15208 (whole entry, looked up): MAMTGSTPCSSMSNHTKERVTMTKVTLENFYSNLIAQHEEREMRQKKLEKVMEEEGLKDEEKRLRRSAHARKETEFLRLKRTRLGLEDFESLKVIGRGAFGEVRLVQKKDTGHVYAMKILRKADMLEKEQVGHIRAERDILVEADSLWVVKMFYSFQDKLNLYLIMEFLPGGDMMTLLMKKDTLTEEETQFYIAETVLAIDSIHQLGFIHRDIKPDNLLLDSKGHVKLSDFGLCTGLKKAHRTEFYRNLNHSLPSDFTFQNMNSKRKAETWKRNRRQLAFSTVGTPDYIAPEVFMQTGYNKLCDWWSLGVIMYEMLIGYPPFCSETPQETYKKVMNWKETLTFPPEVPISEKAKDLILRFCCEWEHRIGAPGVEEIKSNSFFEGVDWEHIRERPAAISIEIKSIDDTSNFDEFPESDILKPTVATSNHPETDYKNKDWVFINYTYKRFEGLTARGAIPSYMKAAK

Block 1
Compound: CNCc1ccccc1-c1csc([C@@H](C)Nc2nc(C)nc3cc(OC)c(OC)cc23)c1
Effect on: cell-free assay
Method: competition with immobilised ligand
Concentration: 1 µM
target	remaining binding [%]
ACVR1B (Homo sapiens, UniProt P36896)	91
HIPK3 (Homo sapiens, UniProt Q9H422)	83
MAP3K3 (Homo sapiens, UniProt Q99759)	83
PIP5K1A (Homo sapiens, UniProt Q99755)	75
CSNK2A1 (Homo sapiens, UniProt P68400)	83
CDK15 (Homo sapiens, UniProt Q96Q40)	100
HIPK2 (Homo sapiens, UniProt Q9H2X6)	86
RIPK4 (Homo sapiens, UniProt P57078)	91
ROCK1 (Homo sapiens, UniProt Q13464)	91
MAPK7 (Homo sapiens, UniProt Q13164)	97
EPHB3 (Homo sapiens, UniProt P54753)	100
IRAK3 (Homo sapiens, UniProt Q9Y616)	75
STK38 (Homo sapiens, UniProt Q15208)	60
MAPK13 (Homo sapiens, UniProt O15264)	100
BMPR1A (Homo sapiens, UniProt P36894)	91
EGFR (Homo sapiens, UniProt P00533, del747-750/T751S)	50
MUSK (Homo sapiens, UniProt O15146)	93
Aurora kinase B (AURKB, Homo sapiens, UniProt Q96GD4)	77
PIK3CA (Homo sapiens, UniProt P42336)	69

Block 2
Target: G protein-coupled receptor kinase 3 (GRK3, Homo sapiens, UniProt P35626)
Sequence of UniProt P35626 (whole entry, looked up): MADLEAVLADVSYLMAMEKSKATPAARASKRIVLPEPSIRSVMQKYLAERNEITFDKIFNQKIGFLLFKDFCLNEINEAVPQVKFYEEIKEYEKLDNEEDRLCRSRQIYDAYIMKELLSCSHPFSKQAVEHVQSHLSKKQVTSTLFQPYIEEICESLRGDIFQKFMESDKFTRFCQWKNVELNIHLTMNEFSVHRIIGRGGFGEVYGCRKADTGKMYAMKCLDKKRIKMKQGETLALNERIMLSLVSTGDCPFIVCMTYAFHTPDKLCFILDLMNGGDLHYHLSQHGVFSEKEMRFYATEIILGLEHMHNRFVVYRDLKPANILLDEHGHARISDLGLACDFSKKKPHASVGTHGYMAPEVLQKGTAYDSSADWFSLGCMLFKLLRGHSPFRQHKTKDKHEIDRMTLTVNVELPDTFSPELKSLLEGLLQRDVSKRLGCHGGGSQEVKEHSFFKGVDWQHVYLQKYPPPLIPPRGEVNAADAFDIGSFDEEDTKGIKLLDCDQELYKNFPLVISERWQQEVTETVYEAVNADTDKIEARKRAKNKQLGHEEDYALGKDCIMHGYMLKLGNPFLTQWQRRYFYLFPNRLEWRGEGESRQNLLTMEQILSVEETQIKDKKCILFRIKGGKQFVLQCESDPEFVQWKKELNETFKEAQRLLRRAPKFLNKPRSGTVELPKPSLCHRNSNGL
Effect on: enzyme activity
Mode: inhibitor
Concentration: 0.5 µM
Baseline: control
Compound	remaining activity [%]
CO[C@H]1C[C@@H]2CC[C@@H](C)[C@@](O)(O2)C(=O)C(=O)N2CCCC[C@H]2C(=O)O[C@H]([C@H](C)C[C@@H]2CC[C@@H](O)[C@H](OC)C2)CC(=O)[C@H](C)/C=C(\C)[C@@H](O)[C@@H](OC)C(=O)[C@H](C)C[C@H](C)/C=C/C=C/C=C/1C	98
Cn1sc(=O)n(Cc2ccccc2)c1=O	99.6
O=C(Nc1cccc(Nc2cc(Nc3cccc(C(F)(F)F)c3)ncn2)c1)C1CC1	103
CC(C)[C@H](CO)Nc1nc(Nc2cc(N)cc(Cl)c2)c2ncn(C(C)C)c2n1	97.1
O=c1c2ccccc2[nH]c(=S)n1CCN1CCC(=C(c2ccc(F)cc2)c2ccc(F)cc2)CC1	102
Nc1[nH]nc2nc3ccccc3nc12	92.4
O=C(CCCc1ccc(-c2ccccc2F)cc1)Nc1ccc(O)cc1	100
O=C1NC(=O)C(c2cn(CCCO)c3ncccc23)=C1c1cnccn1	99.9
C#Cc1cccc(Nc2ncnc3cc(OCCOC)c(OCCOC)cc23)c1	94.8
Cn1c2ccccc2c2c3c(c4c5ccccc5n(CCC#N)c4c21)CNC3=O	106
O=C1NC(=O)C(c2cn(CCCn3ccnc3)c3ccccc23)=C1Nc1ccccc1	97.9
COc1ccc(CNC(=O)Nc2ncc([N+](=O)[O-])s2)cc1	112
Nc1ccc2ncnc(NCCc3ccc(Oc4ccccc4)cc3)c2c1	97.9
NCCNc1ncc(C(N)=O)c(Nc2cccc(C(F)(F)F)c2)n1	90.3
CNC(=O)c1cc(Oc2ccc(NC(=O)Nc3ccc(Cl)c(C(F)(F)F)c3)cc2)ccn1	98.4
CCOC(=O)c1c(C)[nH]c(/C=C2\C(=O)Nc3ccccc32)c1C	94.7

Block 3
Structure (SMILES): CC(C)n1cnc(-c2ccc(F)cc2)c1-c1ncc(C(=O)Nc2ccc(N3CCN(C)CC3)cc2)[nH]1
Method: Phase 2a trial
Species: idiopathic pulmonary fibrosis patients
assay	setting	patients with adverse events [%]
item: vision blurred	60 mg once daily, grade 1 maximum intensity	0
item: bile acids increased	30 mg once daily, grade 4 maximum intensity	0
item: blood bilirubin increased	30 mg once daily, grade 5 maximum intensity	0
item: blood alkaline phosphatase increased	60 mg once daily, grade 3 maximum intensity	0

Block 4
Target: Phosphate system positive regulatory protein PHO4, full length, GST-tagged (PHO4, Saccharomyces cerevisiae, UniProt P07270, residues 1-312)
Method: competition protein-binding microarray
Form: double-stranded DNA, one strand shown
Sample: in vitro
Concentration: 2 µM
Notes: whole 60-bp probe, lowest competitor level
Added: Cbf1 competitor, 0.05 µM
Direction: higher = stronger binding
Shared flanks, not repeated: … GTCTTGATTCGCTTGACGCTGCTG
Target sequence (chain): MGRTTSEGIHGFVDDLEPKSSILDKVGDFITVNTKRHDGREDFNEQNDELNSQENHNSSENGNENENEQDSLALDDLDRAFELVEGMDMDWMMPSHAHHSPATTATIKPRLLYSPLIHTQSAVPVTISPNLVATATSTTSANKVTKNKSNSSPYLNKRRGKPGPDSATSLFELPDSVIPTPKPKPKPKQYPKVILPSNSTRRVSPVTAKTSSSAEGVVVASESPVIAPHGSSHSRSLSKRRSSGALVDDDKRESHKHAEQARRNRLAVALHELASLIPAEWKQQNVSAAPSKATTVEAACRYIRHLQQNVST
Strand	fluorescence intensity
CATACCCAACCTTTTCACGTGATCTAAGATATTTGT	13500 a.u.
CGCTTATACAAAAGGAACGTGATGGGGACATTATTT	13500 a.u.
CTAACGAAGGTTTGGGGCGTGGGTGACAAGCCAAGT	11000 a.u.
GAGCTTCAATCCTGTCACAAATCCATTGCTTGTCTC	3420 a.u.
TGAATTTTCGCGAGTCACGTCGTAACTCATATGCTT	4330 a.u.
TGCGCAACAACTTGTCACTTCACTTTATGTCTAGAA	3310 a.u.
AGAATGTCCCCTGTACACGTGGCAGATTGGCTGAAA	17600 a.u.
TATATCTTTCTATTTCACGTTCACCTTCACCTCTGC	7220 a.u.

Some of these lines once more (block 3):
assay	setting	patients with adverse events [%]
item: blood alkaline phosphatase increased	60 mg once daily, grade 3 maximum intensity	0
item: vision blurred	60 mg once daily, grade 1 maximum intensity	0
item: blood bilirubin increased	30 mg once daily, grade 5 maximum intensity	0
item: bile acids increased	30 mg once daily, grade 4 maximum intensity	0
